Assay results from different studies.
Each line is one published result; not all experiments were run side by side. ± marks the error that the study gave. * marks the point of attachment.
B1: HBx 1-120 R26C (Hepatitis B virus, UniProt P03165); chain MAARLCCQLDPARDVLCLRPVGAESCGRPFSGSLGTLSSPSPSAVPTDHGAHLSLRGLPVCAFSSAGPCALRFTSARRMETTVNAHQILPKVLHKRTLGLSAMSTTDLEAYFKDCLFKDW
B2: VP35 1-215 (Zaire ebolavirus, UniProt Q05127); chain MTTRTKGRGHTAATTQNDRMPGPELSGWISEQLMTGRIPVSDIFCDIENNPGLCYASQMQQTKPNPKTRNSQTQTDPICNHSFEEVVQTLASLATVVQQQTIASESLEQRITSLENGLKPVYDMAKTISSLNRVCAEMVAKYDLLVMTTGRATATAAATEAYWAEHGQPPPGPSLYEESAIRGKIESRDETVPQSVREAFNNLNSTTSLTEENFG
B3: Alpha-bungarotoxin (Bungarus multicinctus, UniProt P60615); chain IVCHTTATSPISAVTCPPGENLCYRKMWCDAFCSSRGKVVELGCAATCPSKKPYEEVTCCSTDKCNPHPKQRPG
B4: IgG1 antibody IgG1 (Homo sapiens); V domains shown; VH QVQLVQSGAQLKKPGESLKISCKGSGYNFSRYWIAWVRHMPGKGLEVMGIIYPDDSDTRYSPSVRGQVTISADKSTSIVYLQWSSLKASDTGIYYCARFGAGMTGMPRYFDTTRWFDPWGQGTQVTVSS; VL DQSVLTQPPSVSGAPGQRVTISCLGGSSNIGAGYDVHWYQHLPGAAPKLLISGNSNRPSGVPARFSGSKSGTSASLAITGLQAEDEADYYCQSYDNDLSQVFGGGTKLTVL
B5: Cd300lf 20-128 (Mus musculus, UniProt Q6SJQ7-2); chain EDPVTGPEEVSGQEQGSLTVQCRYTSGWKDYKKYWCQGVPQRSCKTLVETDASEQLVKKNRVSIRDNQRDFIFTVTMEDLRMSDAGIYWCGITKGGLDPMFKVTVNIGP
B6: K4 (human herpesvirus 8, UniProt Q98157); chain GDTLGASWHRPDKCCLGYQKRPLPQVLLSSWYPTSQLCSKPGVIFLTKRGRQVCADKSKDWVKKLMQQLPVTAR
Sequence of UniProt Q80J94 (whole entry, looked up): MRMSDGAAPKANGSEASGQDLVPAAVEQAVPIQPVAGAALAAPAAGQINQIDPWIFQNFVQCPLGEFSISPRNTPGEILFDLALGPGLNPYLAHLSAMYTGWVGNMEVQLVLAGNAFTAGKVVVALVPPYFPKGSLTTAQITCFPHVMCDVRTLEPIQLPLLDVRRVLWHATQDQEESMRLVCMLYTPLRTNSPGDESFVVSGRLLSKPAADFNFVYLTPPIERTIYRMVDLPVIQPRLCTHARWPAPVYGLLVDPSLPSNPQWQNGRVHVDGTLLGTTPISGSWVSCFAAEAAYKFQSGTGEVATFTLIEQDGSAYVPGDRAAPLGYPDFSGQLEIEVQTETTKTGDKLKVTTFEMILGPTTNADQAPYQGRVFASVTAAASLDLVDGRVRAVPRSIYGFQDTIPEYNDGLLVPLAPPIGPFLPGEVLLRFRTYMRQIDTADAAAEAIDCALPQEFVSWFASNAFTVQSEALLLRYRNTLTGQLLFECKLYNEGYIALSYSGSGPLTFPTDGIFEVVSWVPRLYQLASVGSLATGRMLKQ
Sequence of UniProt Q9Y657 (whole entry, looked up): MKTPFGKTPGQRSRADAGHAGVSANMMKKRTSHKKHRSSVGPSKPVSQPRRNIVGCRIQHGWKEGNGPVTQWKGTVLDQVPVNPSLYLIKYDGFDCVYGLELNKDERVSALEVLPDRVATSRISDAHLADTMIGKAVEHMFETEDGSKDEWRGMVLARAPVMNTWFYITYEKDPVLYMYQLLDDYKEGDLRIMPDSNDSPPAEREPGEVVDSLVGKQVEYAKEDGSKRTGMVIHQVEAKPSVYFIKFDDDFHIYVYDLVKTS
Sequence of UniProt P9WNW7 (whole entry, looked up): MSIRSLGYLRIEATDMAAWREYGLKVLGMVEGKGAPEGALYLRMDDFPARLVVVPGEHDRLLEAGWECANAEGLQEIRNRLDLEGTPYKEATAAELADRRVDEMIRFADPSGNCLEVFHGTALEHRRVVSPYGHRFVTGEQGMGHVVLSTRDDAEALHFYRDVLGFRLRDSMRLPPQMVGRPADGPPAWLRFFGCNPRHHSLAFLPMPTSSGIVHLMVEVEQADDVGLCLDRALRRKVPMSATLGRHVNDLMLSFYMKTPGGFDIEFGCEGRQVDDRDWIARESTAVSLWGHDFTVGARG
Sequence of UniProt P12473 (whole entry, looked up): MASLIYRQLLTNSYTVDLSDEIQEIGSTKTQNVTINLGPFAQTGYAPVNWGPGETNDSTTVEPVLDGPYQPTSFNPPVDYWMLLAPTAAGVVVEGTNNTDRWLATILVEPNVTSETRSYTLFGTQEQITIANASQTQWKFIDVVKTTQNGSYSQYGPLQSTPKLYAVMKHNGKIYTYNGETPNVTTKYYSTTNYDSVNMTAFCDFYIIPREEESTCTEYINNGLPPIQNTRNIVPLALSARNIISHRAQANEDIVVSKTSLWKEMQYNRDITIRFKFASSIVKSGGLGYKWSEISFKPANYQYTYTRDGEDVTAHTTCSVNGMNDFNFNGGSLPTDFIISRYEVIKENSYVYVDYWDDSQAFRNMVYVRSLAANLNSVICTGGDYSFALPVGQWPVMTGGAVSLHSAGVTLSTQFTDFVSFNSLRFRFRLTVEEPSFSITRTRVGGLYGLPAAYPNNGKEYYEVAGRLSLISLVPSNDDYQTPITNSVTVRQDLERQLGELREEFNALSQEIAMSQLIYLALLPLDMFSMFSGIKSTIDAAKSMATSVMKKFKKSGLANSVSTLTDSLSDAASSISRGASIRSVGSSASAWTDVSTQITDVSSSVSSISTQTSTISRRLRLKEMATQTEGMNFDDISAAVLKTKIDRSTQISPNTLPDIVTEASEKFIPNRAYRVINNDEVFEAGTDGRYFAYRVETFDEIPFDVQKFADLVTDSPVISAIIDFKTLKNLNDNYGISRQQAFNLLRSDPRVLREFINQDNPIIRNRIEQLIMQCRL
Sequence of UniProt P12476 (whole entry, looked up): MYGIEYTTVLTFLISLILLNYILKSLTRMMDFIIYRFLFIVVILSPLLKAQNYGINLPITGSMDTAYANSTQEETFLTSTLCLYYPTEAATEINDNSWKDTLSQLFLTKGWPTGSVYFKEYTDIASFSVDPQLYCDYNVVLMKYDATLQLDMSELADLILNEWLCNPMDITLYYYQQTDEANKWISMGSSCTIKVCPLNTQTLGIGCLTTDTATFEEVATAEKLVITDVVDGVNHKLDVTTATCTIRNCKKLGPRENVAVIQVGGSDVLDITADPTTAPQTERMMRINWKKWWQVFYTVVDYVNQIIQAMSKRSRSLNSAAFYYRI
Sequence of UniProt Q8X1D8 (whole entry, looked up): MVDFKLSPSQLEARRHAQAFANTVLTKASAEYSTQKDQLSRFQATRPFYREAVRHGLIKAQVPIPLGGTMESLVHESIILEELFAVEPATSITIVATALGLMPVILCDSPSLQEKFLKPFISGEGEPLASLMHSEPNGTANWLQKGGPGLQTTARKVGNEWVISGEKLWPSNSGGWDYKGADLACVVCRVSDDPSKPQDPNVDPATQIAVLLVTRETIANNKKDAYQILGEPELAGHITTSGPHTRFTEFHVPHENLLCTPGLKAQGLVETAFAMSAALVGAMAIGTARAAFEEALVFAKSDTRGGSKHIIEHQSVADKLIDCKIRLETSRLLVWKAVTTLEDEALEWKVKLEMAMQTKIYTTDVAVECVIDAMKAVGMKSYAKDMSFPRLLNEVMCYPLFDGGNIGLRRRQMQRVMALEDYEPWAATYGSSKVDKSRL
Sequence of UniProt Q66104 (whole entry, looked up): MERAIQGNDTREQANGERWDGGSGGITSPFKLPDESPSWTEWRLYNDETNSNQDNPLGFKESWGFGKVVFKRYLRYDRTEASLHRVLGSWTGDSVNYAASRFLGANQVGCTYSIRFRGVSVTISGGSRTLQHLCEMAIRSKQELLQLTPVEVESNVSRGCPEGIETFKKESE

With `SARS-CoV spike RBD fragment (SARS-CoV) (sequence not shown)` the koff was 0.048 s⁻¹ (ACE2 fragment (Homo sapiens); SPR).
For `B1 (HBx 1-120 R26C)`, the Kd was 91.15 ± 0.61 nM (SPIN1 50-262 (Homo sapiens, UniProt Q9Y657); BLI).
For `CSVTCG (CSVTCG peptide TSP1 properdin-like repeat (Homo sapiens))`, the Kd was 300 nM (env gp120, 125I (HIV-1, UniProt P03377); radioligand binding; peptide; apparent).
`TGCTACTCCTTGCATTGCCAGCGCCCGGCTCTTCCAGGCGCTCACCCCCGTGCCCGAGGGATTTCGGTTCGCATCCAGGCTGGCCCGACGGCTTTCCGGCGTTTCGTCGCCTCGGGAAGACACATCGGGTGATACCGGATTATAAAAGACTAATCCTACGTCTTTTAAAGATTTGTCCGATCTGCGGTGTCATGCAACTAGTGGCGTTGTGCCTTCCTTGACAAGCCTTGCGGCATGCCACAAGAATTTTGCCAACCTTTCGAGTCATCCAATATTCATCAATGGCTCCTACAAGATCCG (dsDNA (Pseudomonas aeruginosa))` — result for binding: “no binding” (mvfR fragment (Pseudomonas aeruginosa); EMSA; double-stranded DNA, one strand shown).
`Ncr1 Fc fusion (Mus musculus, UniProt Q8C567)` — result for binding: “binds” (HA/IgG1 Fc fusion extracellular domain 18-528 (influenza A virus); overlay blot; Fc fusion).
Under binding, `RAD18 fragment (Homo sapiens) (sequence not shown)` is recorded as “binds” (M (Nipah virus, UniProt Q9IK90); pull-down).
For `B2 (VP35 1-215)`, the Kd was 5400 ± 2500 nM (MIB2 1-836 (Homo sapiens, UniProt Q96AX9); ITC).
`B3 (Alpha-bungarotoxin)` — result for “relative surface binding”: 100% (CHRNA7 (Gallus gallus, UniProt P22770); radioligand binding; reference: wild type, higher = more surface toxin binding).
For `CGUACGCGGAAUACUUCGAAA / UCGAAGTAUUCCGCGTACGUG (dsRNA; 5' phosphate, 3' overhangs, fluorescein-dT)`, the Kd was 0.37 ± 0.08 nM (p19 1-172 (Carnation Italian ringspot virus, UniProt Q66104); stopped-flow fluorescence quenching).
`MSDNGPQNQRNAPRITFGGPSDSTG (N 1-25 (SARS-CoV-2, UniProt P0DTC9))` gave a Kd of 7900 nM (G3BP1 (Homo sapiens, UniProt Q13283); ITC; peptide).
`NS3 fragment (hepatitis C virus) (sequence not shown)` — result for “molecule per partner”: 1 (NS5B full length (hepatitis C virus); QCM-D; supported lipid bilayer; 24.0 °C).
For `LGALS3 fragment (Homo sapiens) (sequence not shown)`, “molecule per partner” read 1 (S RBD (SARS-CoV-2); native MS).
Under binding, `B4 (IgG1 antibody IgG1)` is recorded as “binds” (SARS-CoV-2 spike RBD (SARS-CoV-2); SPR; antibody).
`hsaC (Mycobacterium tuberculosis, UniProt P9WNW7)` gave a kcat/Km of 5e+06 M⁻¹ s⁻¹ (Cc1ccc(O)c(O)c1CC[C@@H]1C(=O)CC[C@]2(C)C(=O)CC[C@@H]12; steady-state kinetics; pH 7.5, 25 °C).
The Km of `Ac-EFQLQ-pNA (N-acetyl, C-pNA; pNA = O=[N+]([O-])c1ccc(N*)cc1)` is reported as 300 µM (ORF1, 3C-like protease (Southampton virus, UniProt Q04544); substrate, pNA substrate cleavage; pH 8.5).
`VP7 (Rhesus rotavirus, UniProt P12476)` — result for binding: “binds” (VP5* VP4 fragment (rhesus rotavirus, UniProt P12473); cryo-EM; local reconstruction, upright conformation).
The kcat of `nitroalkane oxidase (Fusarium oxysporum, UniProt Q8X1D8)` is reported as 2 ± 0.1 s⁻¹ (CCCCCC[N+](=O)[O-]; steady-state kinetics; pH 8, 30 °C, together with: O2).
The pKa of `BM2 transmembrane peptide (Influenza B virus)` is reported as 4.5 (solid-state NMR, item: His19; VM+ membrane pellets; 243 K, membrane-bound tetramer, no drug, third protonation).
Under “molecule per partner”, `ligA (Mycobacterium tuberculosis, UniProt P9WNV1)` is recorded as 1 (xthA (Mycobacterium tuberculosis, UniProt P96273); SEC).
For `B5 (Cd300lf 20-128)`, the Kd was 660 nM (ORF2 VP1 P domain (murine norovirus, UniProt Q80J94); SPR; Fc fusion).
`C protein fragment (Measles virus) (sequence not shown)`: binding “binds” (L protein (Measles virus, UniProt P12576); cryo-EM structure).
The pIC50 of `B6 (K4)` is reported as 6.84 (ORF74 whole (human herpesvirus 8, UniProt Q98146); competition with anti-ORF74 antibody binding, flow cytometry; HEK293A.ORF74).

Repeated from above:
With `SARS-CoV spike RBD fragment (SARS-CoV) (sequence not shown)` the koff was 0.048 s⁻¹ (ACE2 fragment (Homo sapiens); SPR).
`Ncr1 Fc fusion (Mus musculus, UniProt Q8C567)` — result for binding: “binds” (HA/IgG1 Fc fusion extracellular domain 18-528 (influenza A virus); overlay blot; Fc fusion).
